Results from different studies.
Every numbered part comes from another study and shows a few of its results, in no order.
UniProt Q12851, sequence (whole entry, looked up): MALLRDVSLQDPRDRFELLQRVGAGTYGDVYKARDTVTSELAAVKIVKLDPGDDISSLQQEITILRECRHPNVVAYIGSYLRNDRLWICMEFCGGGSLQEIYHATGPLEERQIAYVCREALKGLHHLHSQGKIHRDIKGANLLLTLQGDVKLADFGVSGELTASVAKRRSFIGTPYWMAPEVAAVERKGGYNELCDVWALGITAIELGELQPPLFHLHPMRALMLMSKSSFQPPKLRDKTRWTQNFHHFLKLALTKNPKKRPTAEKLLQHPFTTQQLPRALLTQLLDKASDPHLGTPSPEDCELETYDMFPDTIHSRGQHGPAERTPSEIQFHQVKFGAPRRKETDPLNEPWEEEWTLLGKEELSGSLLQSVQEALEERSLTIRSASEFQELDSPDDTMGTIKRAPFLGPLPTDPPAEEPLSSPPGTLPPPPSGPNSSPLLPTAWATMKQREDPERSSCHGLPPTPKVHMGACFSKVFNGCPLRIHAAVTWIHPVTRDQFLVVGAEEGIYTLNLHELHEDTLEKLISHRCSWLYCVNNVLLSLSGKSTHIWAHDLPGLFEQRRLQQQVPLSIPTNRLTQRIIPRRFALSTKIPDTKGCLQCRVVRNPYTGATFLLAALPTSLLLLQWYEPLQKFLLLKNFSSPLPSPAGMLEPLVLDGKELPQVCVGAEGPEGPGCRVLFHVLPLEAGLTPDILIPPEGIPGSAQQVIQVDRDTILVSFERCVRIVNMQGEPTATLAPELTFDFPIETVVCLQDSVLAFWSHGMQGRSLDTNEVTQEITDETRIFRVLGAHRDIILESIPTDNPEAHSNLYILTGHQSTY
UniProt Q9H2K8, sequence (whole entry, looked up): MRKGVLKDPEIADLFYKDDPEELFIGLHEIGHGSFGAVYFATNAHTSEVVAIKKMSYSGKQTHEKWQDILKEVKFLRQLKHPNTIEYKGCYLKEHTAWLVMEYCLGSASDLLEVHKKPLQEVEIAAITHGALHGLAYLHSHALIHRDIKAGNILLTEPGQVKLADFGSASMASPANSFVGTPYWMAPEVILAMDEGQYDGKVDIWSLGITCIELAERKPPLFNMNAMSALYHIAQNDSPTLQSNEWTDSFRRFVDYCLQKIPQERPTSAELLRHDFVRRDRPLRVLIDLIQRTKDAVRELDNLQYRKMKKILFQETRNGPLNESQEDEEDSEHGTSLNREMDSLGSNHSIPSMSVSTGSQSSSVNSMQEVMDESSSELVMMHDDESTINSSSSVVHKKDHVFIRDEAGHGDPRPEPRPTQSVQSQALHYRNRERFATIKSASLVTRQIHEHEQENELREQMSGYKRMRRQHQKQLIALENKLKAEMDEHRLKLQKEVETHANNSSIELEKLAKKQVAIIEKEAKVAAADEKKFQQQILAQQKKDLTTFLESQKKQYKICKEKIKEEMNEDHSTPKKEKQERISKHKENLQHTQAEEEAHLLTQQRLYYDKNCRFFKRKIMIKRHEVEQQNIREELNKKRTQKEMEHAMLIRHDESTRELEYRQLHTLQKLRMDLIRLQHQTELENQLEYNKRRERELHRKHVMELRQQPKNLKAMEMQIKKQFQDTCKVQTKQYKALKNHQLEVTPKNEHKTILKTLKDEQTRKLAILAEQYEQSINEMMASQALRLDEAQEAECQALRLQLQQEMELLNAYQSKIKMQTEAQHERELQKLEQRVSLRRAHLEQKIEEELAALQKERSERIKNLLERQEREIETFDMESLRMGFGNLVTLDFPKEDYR
UniProt P11362, sequence (whole entry, looked up): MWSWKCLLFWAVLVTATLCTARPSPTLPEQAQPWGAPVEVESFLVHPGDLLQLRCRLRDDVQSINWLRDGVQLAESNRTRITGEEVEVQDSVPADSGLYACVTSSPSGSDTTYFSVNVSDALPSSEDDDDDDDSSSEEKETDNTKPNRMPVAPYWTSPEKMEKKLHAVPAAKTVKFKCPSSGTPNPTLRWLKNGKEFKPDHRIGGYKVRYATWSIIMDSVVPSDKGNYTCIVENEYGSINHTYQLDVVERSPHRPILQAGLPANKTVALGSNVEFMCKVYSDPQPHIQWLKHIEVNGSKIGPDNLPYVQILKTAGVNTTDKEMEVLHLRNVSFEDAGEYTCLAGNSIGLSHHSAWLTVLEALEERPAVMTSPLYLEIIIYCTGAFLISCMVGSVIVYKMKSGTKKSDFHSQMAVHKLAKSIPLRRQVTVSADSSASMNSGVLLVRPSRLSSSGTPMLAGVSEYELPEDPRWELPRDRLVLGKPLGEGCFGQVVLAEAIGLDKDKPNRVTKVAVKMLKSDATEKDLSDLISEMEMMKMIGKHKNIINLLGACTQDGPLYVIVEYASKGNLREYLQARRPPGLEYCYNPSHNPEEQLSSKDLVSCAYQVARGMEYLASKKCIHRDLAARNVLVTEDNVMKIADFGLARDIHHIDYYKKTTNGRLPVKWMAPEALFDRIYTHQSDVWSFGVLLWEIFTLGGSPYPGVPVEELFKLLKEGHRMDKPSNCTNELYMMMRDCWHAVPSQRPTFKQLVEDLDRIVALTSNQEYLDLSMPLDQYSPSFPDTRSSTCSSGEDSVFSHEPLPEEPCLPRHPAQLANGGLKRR
UniProt P19784, sequence (whole entry, looked up): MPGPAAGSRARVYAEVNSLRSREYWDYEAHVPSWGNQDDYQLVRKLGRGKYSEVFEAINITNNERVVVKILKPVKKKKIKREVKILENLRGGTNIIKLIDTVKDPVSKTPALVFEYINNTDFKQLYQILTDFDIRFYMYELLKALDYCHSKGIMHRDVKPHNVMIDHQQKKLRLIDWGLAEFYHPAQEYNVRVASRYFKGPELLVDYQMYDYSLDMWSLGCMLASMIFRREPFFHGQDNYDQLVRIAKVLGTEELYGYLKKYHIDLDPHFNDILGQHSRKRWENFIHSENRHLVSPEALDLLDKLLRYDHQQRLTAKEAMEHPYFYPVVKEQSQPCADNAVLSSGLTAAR
UniProt O15111, sequence (whole entry, looked up): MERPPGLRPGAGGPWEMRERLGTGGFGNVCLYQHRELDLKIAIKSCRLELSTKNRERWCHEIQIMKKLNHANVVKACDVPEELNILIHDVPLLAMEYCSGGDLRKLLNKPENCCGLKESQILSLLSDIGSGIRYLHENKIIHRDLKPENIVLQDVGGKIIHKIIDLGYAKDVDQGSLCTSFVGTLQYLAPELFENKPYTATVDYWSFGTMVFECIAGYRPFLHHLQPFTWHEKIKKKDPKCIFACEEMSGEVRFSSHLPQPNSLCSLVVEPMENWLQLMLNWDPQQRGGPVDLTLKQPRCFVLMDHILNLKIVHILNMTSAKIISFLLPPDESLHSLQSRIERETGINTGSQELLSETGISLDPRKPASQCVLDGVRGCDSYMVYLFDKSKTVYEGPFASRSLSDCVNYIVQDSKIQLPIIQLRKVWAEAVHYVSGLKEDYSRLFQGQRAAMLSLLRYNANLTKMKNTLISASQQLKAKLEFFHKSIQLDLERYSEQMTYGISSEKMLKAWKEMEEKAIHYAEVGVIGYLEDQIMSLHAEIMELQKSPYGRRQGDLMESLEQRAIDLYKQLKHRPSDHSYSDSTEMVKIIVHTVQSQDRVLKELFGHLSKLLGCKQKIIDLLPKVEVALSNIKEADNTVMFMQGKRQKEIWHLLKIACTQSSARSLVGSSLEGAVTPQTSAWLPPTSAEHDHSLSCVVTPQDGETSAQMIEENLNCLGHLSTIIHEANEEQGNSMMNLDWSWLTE
UniProt Q9BWU1, sequence (whole entry, looked up): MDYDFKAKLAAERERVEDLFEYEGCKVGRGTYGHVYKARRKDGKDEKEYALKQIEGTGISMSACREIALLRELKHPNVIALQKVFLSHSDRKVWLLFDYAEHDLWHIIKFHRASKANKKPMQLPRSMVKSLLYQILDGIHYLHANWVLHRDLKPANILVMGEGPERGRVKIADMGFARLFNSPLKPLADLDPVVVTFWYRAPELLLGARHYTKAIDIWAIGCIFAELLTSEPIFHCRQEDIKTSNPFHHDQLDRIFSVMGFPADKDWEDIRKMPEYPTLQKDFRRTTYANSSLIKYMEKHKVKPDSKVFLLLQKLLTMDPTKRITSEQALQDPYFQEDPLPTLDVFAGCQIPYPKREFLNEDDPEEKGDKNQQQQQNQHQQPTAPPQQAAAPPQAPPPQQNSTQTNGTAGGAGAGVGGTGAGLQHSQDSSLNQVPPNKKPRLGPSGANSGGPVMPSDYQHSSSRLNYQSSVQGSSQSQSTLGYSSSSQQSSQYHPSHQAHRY
UniProt Q15759, sequence (whole entry, looked up): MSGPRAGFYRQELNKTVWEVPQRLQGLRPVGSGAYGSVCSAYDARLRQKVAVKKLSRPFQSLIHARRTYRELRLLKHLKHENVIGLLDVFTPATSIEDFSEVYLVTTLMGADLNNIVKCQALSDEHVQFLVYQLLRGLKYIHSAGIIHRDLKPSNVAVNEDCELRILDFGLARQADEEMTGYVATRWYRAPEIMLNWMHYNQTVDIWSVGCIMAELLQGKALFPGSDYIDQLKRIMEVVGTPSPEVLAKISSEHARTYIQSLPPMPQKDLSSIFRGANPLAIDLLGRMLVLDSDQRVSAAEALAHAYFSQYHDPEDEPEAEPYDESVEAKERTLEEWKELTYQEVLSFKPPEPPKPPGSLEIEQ

Study 1
SMILES: CC(C)n1cnc(-c2ccc(F)cc2)c1-c1ncc(C(=O)Nc2ccc(N3CCN(C)CC3)cc2)[nH]1
Technique: phase 2a trial
Host: idiopathic pulmonary fibrosis patients
For measured: infection; dose not given, grade 2, all arms pooled: “adverse event incidence” read 0%.
measured: appendicitis; dose not given, grade 4, all arms pooled — “adverse event incidence”: 0%.
It gave 0% for “adverse event incidence” (measured: chronic gastritis; 30 mg once daily, grade 4).
measured: liver injury; 30 mg once daily, grade 1 — “adverse event incidence”: 0%.
measured: carotid intima-media thickening; 30 mg once daily, grade 3 — “adverse event incidence”: 0%.
The “adverse event incidence” was 0% (measured: carotid intima-media thickening; 30 mg once daily, grade 4).
The “adverse event incidence” was 0% (measured: allergic conjunctivitis; 30 mg once daily, grade 5).
The “adverse event incidence” was 0% (measured: ventricular extrasystoles; 60 mg once daily, grade 2).
measured: liver injury; dose not given, grade 5, all arms pooled — “adverse event incidence”: 0%.
For measured: QRS axis abnormal; dose not given, grade 5, all arms pooled: “adverse event incidence” read 0%.

Study 2
Target: Receptor-interacting serine/threonine-protein kinase 2 (RIPK2, Homo sapiens, UniProt O43353)
UniProt O43353, sequence (whole entry, looked up): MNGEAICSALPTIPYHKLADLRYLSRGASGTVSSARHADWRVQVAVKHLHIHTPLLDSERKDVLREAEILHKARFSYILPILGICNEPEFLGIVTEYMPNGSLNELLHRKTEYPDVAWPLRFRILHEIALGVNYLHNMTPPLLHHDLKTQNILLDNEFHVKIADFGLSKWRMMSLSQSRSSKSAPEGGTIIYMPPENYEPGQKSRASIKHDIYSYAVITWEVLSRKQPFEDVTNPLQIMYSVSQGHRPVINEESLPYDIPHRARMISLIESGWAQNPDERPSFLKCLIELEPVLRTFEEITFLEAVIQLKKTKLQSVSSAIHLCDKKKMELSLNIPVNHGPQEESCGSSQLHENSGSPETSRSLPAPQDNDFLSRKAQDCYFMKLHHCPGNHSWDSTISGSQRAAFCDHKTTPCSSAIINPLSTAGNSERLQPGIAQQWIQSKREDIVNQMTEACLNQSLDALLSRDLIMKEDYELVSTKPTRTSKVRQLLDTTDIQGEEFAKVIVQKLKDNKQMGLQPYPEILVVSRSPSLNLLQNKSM
Effect on: enzyme activity
Mode: inhibitor
Concentration: 0.5 µM
Reference: control
The remaining activity of `CC(C)N(CCC(=O)c1ccc2ccccc2c1)Cc1ccccc1` is reported as 78.3%.
`CCCCc1c(-c2ccc(O)cc2)[nH]c2nccnc12` has a remaining activity of 58.6%.
`O=Nc1c(-c2c(O)[nH]c3ccccc23)[nH]c2ccccc12` has a remaining activity of 72.3%.
With `O=c1c(-c2ccc(F)cc2)c(-c2ccncc2)[nH]n1-c1ccc(Cl)cc1` the remaining activity was 50.2%.
The remaining activity of `N#C/C(=C(/N)SC1C=CC=CC1)c1cccc(C(O)c2ccncc2)c1` (centres unmarked) is reported as 83.7%.
The remaining activity of `COc1cc2c(Nc3ccc(Br)cc3F)ncnc2cc1OCC1CCN(C)CC1` is reported as 23.4%.
`O=C(O)/C=C/c1cc(Br)c(Br)c(Br)c1Br` has a remaining activity of 88.4%.
The remaining activity of `O=C(c1ccccc1)c1ccc(N2CCOCC2)cc1O` is reported as 95%.
The remaining activity of `C[C@@H](N)[C@H]1CC[C@H](C(=O)Nc2ccncc2)CC1` is reported as 100%.
With `FC(F)(F)c1ccc(/C=C/c2nc(COc3ccc(CCCCn4ccnn4)cc3)co2)cc1` the remaining activity was 109%.

Study 3
Structure (SMILES): CC(=O)Nc1c(C(C)=O)c(=O)n(C)c2nc(-c3ccc(Cl)cc3Cl)c(-c3ccc(Cl)cc3)cc12
Concentration: 1 µM
It gave 100% for remaining binding (Dual specificity mitogen-activated protein kinase kinase 4 (MAP2K4, Homo sapiens, UniProt P45985); cell-free assay, competition with immobilised ligand).
For Mitogen-activated protein kinase kinase kinase kinase 2 (MAP4K2, Homo sapiens, UniProt Q12851); cell-free assay, competition with immobilised ligand: remaining binding read 92%.
It gave 100% for remaining binding (Serine/threonine-protein kinase MRCK beta (CDC42BPB, Homo sapiens, UniProt Q9Y5S2); cell-free assay, competition with immobilised ligand).
It gave 100% for remaining binding (Hepatocyte growth factor receptor (MET, Homo sapiens, UniProt P08581, Y1235D); cell-free assay, competition with immobilised ligand).
For Mitogen-activated protein kinase kinase kinase 4 (MAP3K4, Homo sapiens, UniProt Q9Y6R4); cell-free assay, competition with immobilised ligand: remaining binding read 89%.
The remaining binding was 100% (Mitogen-activated protein kinase kinase kinase 15 (MAP3K15, Homo sapiens, UniProt Q6ZN16); cell-free assay, competition with immobilised ligand).
For Inhibitor of nuclear factor kappa-B kinase subunit alpha (CHUK, Homo sapiens, UniProt O15111); cell-free assay, competition with immobilised ligand: remaining binding read 100%.
The remaining binding was 93% (Mitogen-activated protein kinase 11 (MAPK11, Homo sapiens, UniProt Q15759); cell-free assay, competition with immobilised ligand).
Serine/threonine-protein kinase TAO3 (TAOK3, Homo sapiens, UniProt Q9H2K8); cell-free assay, competition with immobilised ligand — remaining binding: 63%.
Receptor-type tyrosine-protein kinase FLT3 (FLT3, Homo sapiens, UniProt P36888, D835H); cell-free assay, competition with immobilised ligand — remaining binding: 100%.
Fibroblast growth factor receptor 1 (FGFR1, Homo sapiens, UniProt P11362); cell-free assay, competition with immobilised ligand — remaining binding: 100%.
Ephrin type-A receptor 7 (EPHA7, Homo sapiens, UniProt Q15375); cell-free assay, competition with immobilised ligand — remaining binding: 100%.
Epidermal growth factor receptor (EGFR, Homo sapiens, UniProt P00533, T790M); cell-free assay, competition with immobilised ligand — remaining binding: 100%.
The remaining binding was 94% (Mitogen-activated protein kinase kinase kinase 6 (MAP3K6, Homo sapiens, UniProt O95382); cell-free assay, competition with immobilised ligand).
The remaining binding was 100% (Casein kinase II subunit alpha' (CSNK2A2, Homo sapiens, UniProt P19784); cell-free assay, competition with immobilised ligand).
It gave 100% for remaining binding (Wee1-like protein kinase (WEE1, Homo sapiens, UniProt P30291); cell-free assay, competition with immobilised ligand).
Cyclin-dependent kinase 19 (CDK19, Homo sapiens, UniProt Q9BWU1); competition binding — remaining binding: 100%.

Study 4
Effect on: AlphaScreen signal
Technique: AlphaScreen counter screen
Medium: His6 peptide without bromodomain
Concentration: 50 µM
Setting: assay interference check
`O=C1NC(=O)C(=Cc2ccccc2OCc2ccccc2Cl)S1` has an inhibition of 8.15%.
For `COc1ccc(-c2csc3nc[nH]c(=O)c23)cc1`, the inhibition was 4.9%.
`CN(C)C[C@@H]1CCn2cc(c3ccccc32)C2=C(C(=O)NC2=O)c2cn(c3ccccc23)CCO1` gave an inhibition of 96.7%.
The inhibition of `COc1nccc(-c2c(-c3ccc(F)cc3)ncn2C2CCC(O)CC2)n1` (centres unmarked) is reported as 5.15%.
`COc1ccc(-c2[nH]c3ncccc3c2CN2CCN(C)CC2)cc1` has an inhibition of 14.5%.
For `COc1ccc(-c2nnc3ccc(SCC(=O)N4CCCCCC4)nn23)cc1OC`, the inhibition was 10.1%.
With `COc1ccc(-c2nsc3c(=O)[nH]cnc23)cc1` the inhibition was 9.3%.

For quick reference, copied from above (study 2):
`O=C(O)/C=C/c1cc(Br)c(Br)c(Br)c1Br` has a remaining activity of 88.4%.
The remaining activity of `O=C(c1ccccc1)c1ccc(N2CCOCC2)cc1O` is reported as 95%.
The remaining activity of `C[C@@H](N)[C@H]1CC[C@H](C(=O)Nc2ccncc2)CC1` is reported as 100%.
With `FC(F)(F)c1ccc(/C=C/c2nc(COc3ccc(CCCCn4ccnn4)cc3)co2)cc1` the remaining activity was 109%.
